{"data": "Assay results gathered from unrelated publications", "note": "Numbered parts are unrelated; each lists some results of a single study. Positions count from the first letter of the parent shown."}
{"data": "Set 1", "target": "TAR DNA-binding protein 43, full length, His tag (TARDBP, Homo sapiens, UniProt Q13148, residues 1-414)", "technique": "RNA Bind-n-Seq", "molecule type": "RNA", "medium": "in vitro", "tested at": "20 nM", "notes": "6-mer, flanks averaged, single round", "with": "150 mM KCl", "baseline": "input library", "direction": "higher = stronger binding"}
{"Oligonucleotide": "GACGGU", "6-mer enrichment (R)": 1.36}
{"Oligonucleotide": "GACCAA", "6-mer enrichment (R)": 0.757}
{"Oligonucleotide": "AUGGAC", "6-mer enrichment (R)": 0.849}
{"Oligonucleotide": "UUCUAG", "6-mer enrichment (R)": 0.604}
{"Oligonucleotide": "AGUUUC", "6-mer enrichment (R)": 0.567}
{"Oligonucleotide": "GGACUC", "6-mer enrichment (R)": 0.969}
{"Oligonucleotide": "CGUAAG", "6-mer enrichment (R)": 0.826}
{"Oligonucleotide": "CCCUGG", "6-mer enrichment (R)": 0.867}
{"data": "Set 2", "target": "Centromere-binding protein 1, full length, His-tagged (CBF1, Saccharomyces cerevisiae, UniProt P17106, residues 1-351)", "technique": "competition protein-binding microarray", "molecule type": "double-stranded DNA, one strand shown", "medium": "in vitro", "tested at": "2 µM", "notes": "whole 60-bp probe, lowest competitor level", "with": "Pho4 competitor, 0.05 µM", "direction": "higher = stronger binding", "constant ends, left off below": "… GTCTTGATTCGCTTGACGCTGCTG", "sequence of UniProt P17106 (whole entry, looked up)": "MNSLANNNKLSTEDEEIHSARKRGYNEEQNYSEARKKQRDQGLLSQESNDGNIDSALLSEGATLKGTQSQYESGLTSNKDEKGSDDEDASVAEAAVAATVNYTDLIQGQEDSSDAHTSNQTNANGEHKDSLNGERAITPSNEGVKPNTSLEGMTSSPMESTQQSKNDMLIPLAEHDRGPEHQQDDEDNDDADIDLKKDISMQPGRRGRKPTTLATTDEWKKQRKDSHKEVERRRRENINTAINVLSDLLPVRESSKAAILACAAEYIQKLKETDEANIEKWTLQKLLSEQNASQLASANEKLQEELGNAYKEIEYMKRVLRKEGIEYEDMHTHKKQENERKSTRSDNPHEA"}
{"Oligonucleotide": "CGGAGAGGACCTACCCACGTGCCAGAATTGTTTCAA", "fluorescence intensity [a.u.]": 1410}
{"Oligonucleotide": "TTCTCATAGAGAATCCACGTGTTGGTCTTTTGGATT", "fluorescence intensity [a.u.]": 869}
{"Oligonucleotide": "CCTTGGTCTGTAGAGCACATGGCATTTCCAGGTCTC", "fluorescence intensity [a.u.]": 129}
{"Oligonucleotide": "CATACCCAACCTTGAAGTGTGGGTGAAGATATTTGT", "fluorescence intensity [a.u.]": 75.4}
{"Oligonucleotide": "TCACGAATCCTTCTCTAACTTACGTTCAAGAGGTTC", "fluorescence intensity [a.u.]": 58.6}
{"Oligonucleotide": "GAAGAGGACGAAGACGACGTGGTGAAAGAAGACGAA", "fluorescence intensity [a.u.]": 66.1}
{"Oligonucleotide": "CGGGGTTAAGTTTGACAGGTGGGTGGCTTGCAGCAG", "fluorescence intensity [a.u.]": 62.9}
{"Oligonucleotide": "CAGGGGGAGCAAGTGCATGATCAGAAGGACCAATCT", "fluorescence intensity [a.u.]": 92.7}
{"data": "Set 3", "target": "Protein max, full length (MAX, Homo sapiens, UniProt P61244-2, residues 1-151)", "technique": "protein-binding microarray", "molecule type": "double-stranded DNA, one strand shown", "medium": "in vitro", "tested at": "not given", "notes": "k-mer, scored over probes, only values ≥0.25", "direction": "higher = stronger binding"}
{"Oligonucleotide": "CCAAGCAC", "E-score": 0.256}
{"Oligonucleotide": "ACGCGCCT", "E-score": 0.259}
{"Oligonucleotide": "CGCGCACA", "E-score": 0.303}
{"Oligonucleotide": "CGTGTAGC", "E-score": 0.354}
{"Oligonucleotide": "CATATGTA", "E-score": 0.276}
{"Oligonucleotide": "TGACACCA", "E-score": 0.267}
{"Oligonucleotide": "CATGCATC", "E-score": 0.292}
{"Oligonucleotide": "CGTGGTCA", "E-score": 0.398}
{"data": "Other studies, line by line", "parent": "viral docking peptide; KKVKRRLFETREL; partner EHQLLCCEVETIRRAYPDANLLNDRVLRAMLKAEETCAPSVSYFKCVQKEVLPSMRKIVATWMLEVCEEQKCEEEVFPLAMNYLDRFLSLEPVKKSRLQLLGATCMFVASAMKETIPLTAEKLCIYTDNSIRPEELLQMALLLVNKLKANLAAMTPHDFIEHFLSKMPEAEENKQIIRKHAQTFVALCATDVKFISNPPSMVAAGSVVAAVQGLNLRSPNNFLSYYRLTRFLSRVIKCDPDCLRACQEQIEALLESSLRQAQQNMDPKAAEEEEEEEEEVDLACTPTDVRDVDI"}
{"Substitution": "KKVKRRLFETREA [L13A]", "target": "CCND1, cyclin fold, Cln2 fusion (human)", "test": "yeast growth competition, sequencing", "system": "yeast", "conditions": "weak parent motif", "scale": "baseline: not given, higher = stronger binding", "measurement": "normalised enrichment score", "value": 0.0815}
{"note": "Some of these lines once more (set 2):"}
{"Oligonucleotide": "CATACCCAACCTTGAAGTGTGGGTGAAGATATTTGT", "fluorescence intensity [a.u.]": 75.4}
